Assay results gathered from unrelated publications.
Each numbered part is a random draw from the data of one study; scales do not carry over between parts.
Chain of UniProt Q9NR20 (whole entry, looked up): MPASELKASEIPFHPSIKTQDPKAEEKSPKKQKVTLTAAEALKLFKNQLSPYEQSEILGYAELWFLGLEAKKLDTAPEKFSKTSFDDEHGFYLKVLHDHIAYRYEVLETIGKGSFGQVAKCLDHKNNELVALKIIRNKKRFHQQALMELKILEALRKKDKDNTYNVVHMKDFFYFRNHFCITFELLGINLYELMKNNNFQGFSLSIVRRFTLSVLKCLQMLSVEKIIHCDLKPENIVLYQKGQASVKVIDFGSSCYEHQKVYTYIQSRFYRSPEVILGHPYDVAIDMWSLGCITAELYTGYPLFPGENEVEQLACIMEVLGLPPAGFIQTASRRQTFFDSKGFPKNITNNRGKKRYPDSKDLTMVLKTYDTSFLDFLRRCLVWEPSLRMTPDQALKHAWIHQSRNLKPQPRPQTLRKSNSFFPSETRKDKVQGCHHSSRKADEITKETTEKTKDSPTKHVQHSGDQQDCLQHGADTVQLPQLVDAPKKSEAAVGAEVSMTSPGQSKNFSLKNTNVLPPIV

Sample 1 — technique: protein-binding microarray; molecule type: double-stranded DNA, one strand shown; sample: in vitro; tested at: not given; reading: higher = stronger binding; quantity: E-score
Target: Protein max, full length (MAX, Homo sapiens, UniProt P61244-2, residues 1-151)
Notes: k-mer, scored over probes, only values ≥0.25
ACATATGG: 0.329
CATGTGTA: 0.461
AATGTGCC: 0.251
ACAGCATG: 0.45
GCGTGCAA: 0.409
CACCCACG: 0.423
GTGCGCGA: 0.263
CACGCACA: 0.352

Sample 2 — technique: protein binding microarray; molecule type: double-stranded DNA, one strand shown; sample: in vitro; tested at: not given; reference: not given; reading: higher = stronger binding; quantity: E-score
Target: Histone acetyltransferase KAT6A, both winged helices, GST fusion (KAT6A, Homo sapiens, UniProt Q92794, residues 1-181)
Notes: 8-mer, flanks averaged, mean of 2 arrays, mostly near background
Target sequence (chain): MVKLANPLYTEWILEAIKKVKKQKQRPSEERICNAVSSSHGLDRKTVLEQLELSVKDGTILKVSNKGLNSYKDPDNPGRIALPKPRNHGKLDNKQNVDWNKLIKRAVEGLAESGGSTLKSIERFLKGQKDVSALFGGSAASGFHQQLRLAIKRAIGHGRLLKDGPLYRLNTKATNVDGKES
CGTTCGAC: 0.113
GGTGGCGA: 0.0238
CTCTCAGC: -0.0766
ACTCCCTC: -0.196
CCGCCGCA: 0.318
CTTCCGTA: 0.247
ATGACCAC: 0.0438
GCAAATGC: 0.0675

Sample 3 — technique: RNA Bind-n-Seq; molecule type: RNA; sample: in vitro; tested at: 20 nM; notes: 6-mer, flanks averaged, single round; added: 150 mM KCl; reference: input library; reading: higher = stronger binding; quantity: 6-mer enrichment (R)
Target: TAR DNA-binding protein 43, full length, His tag (TARDBP, Homo sapiens, UniProt Q13148, residues 1-414)
AAUCUC: 0.552
UUGGAC: 0.775
CUGUCG: 0.785
CGGUUG: 1.18
GGACAC: 1.09
UAGACC: 0.64
ACGUCU: 0.596
UACGUA: 0.65

Mixed results
CN(C)CCCn1cc(C2=C(c3c[nH]c4ccccc34)C(=O)NC2=O)c2ccccc21  remaining activity (Dual specificity tyrosine-phosphorylation-regulated kinase 4 (DYRK4, Homo sapiens, UniProt Q9NR20); enzyme activity, inhibitor; 0.5 µM; reference: control): 95%

Excerpt of the above (sample 1):
AATGTGCC: 0.251
ACAGCATG: 0.45
GCGTGCAA: 0.409
CACCCACG: 0.423
